Measurements from different studies.
Every numbered part comes from another study and shows a few of its results, in no order.

Series 1 — target: Sox, HMG box (Pigoraptor chileana); method: Spec-seq; form: double-stranded DNA, one strand shown; matrix: in vitro; tested at: not given; setting: whole probe, mean of replicates; relative to: not given; reading: lower = stronger binding; all sequences stand within: GAGTCGTCTCGTCAGCAC … CCGTAGAGCACTCAGGTC
Construct (chain): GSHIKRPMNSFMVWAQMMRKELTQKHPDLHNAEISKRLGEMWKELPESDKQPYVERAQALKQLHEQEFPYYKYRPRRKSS
`CATTGTC` — result for “relative binding energy”: -2.48 ln ratio.
For `TGCAGTT`, “relative binding energy” read 0.223 ln ratio.
For `CATACGT`, “relative binding energy” read 0.254 ln ratio.
For `TTACGTT`, “relative binding energy” read 0.539 ln ratio.
`CAGCGTT`: “relative binding energy” 1.19 ln ratio.
`TTAAGTT`: “relative binding energy” 0.414 ln ratio.
`TAATGTT`: “relative binding energy” -0.299 ln ratio.
For `ACTTGTT`, “relative binding energy” read -2.56 ln ratio.
For `CATGCGT`, “relative binding energy” read 0.693 ln ratio.
`CATAGGA` — result for “relative binding energy”: -0.314 ln ratio.
`TTCCGTT` — result for “relative binding energy”: 0.879 ln ratio.
`CATGCTA` — result for “relative binding energy”: 0.539 ln ratio.
`CATTCTT` — result for “relative binding energy”: -1.77 ln ratio.
Under “relative binding energy”, `CATCATG` is recorded as 0.116 ln ratio.
For `ACGCGTT`, “relative binding energy” read 0.574 ln ratio.
For `CATTCAT`, “relative binding energy” read -0.744 ln ratio.
For `CATACTG`, “relative binding energy” read -0.141 ln ratio.
`TTCTGTT` — result for “relative binding energy”: -1.24 ln ratio.
`CATTGTG`: “relative binding energy” -2.32 ln ratio.

Series 2 — method: RNA Bind-n-Seq; form: RNA; matrix: in vitro; tested at: not given; setting: RNA with constant flanks, ends assumed; relative to: input RNA pool; reading: higher = stronger binding
Target: RING finger protein unkempt homolog, zinc fingers 1-6, GST-SBP tag (UNK, Homo sapiens, UniProt Q9C0B0, residues 30-357)
UniProt Q9C0B0, sequence (30-357, looked up): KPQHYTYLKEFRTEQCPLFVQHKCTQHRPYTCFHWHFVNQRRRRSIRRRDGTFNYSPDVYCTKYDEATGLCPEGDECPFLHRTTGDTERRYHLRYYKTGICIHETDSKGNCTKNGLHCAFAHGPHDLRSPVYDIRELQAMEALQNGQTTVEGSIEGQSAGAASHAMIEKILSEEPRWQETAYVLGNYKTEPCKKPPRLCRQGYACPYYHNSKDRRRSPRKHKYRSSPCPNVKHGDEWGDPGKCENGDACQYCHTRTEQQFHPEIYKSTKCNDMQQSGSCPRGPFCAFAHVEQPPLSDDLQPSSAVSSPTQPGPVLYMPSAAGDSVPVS
All sequences stand within: GGGAGUUCUACAGUCCGACGAUC … CAACAGAGGAUUGAGCAUCA
`UCUGCUACACGGGAGCCACCAUACAGAGUACCUAGGGAUGAUUGGGAAGAAAAAAGGCACUUCCGAAGAGAUAGUUUUGAUGAUCGUGGUCCUAGUCUCAACCCAGUGCUUGAUUAUGAC` gave a bound/input enrichment of 0.453 ratio.
The bound/input enrichment of `AUCUAUGCUAACCUCUCUGAUGAGAAGGCUUUCGUGUUUUCAGUUGCCUUGGCAGAAAUAAACCGAAAAAUUAUCAAUCAAAGACUUAUUCUCUGAUAUUUGUCUUCAAACUCUGUUGGU` is reported as 0.126 ratio.
The bound/input enrichment of `AUGGGCAGAAAGGCACAGGUUGUGCUGUGCUUUAGCCUGCAUUUGUCUAUCCAAACUUGCCCGUUUUAUCGGCUUUUUACUUUUUUGUACUUUAUUUUUCCUAUAAAGUCCUUUUCAGAA` is reported as 0.207 ratio.
For `UCCUGUGCUGUGGGAAGGGGCAGGACGGCUGGUGGGGGGGGCUGAUGUGGCACCUUGCAAACCGAAUAUCUAAGUCCACAAUCUUUGUAAGAAAAGUAUGUUUAUGUUUCAAUCUGAAUC`, the bound/input enrichment was 0.19 ratio.
For `CCAUUUGAUCCUAGAGUUCUCUUCUCUGCUGGUCAUGAUGGAAAUGUGAUAGUGUGGGAUCCCGCAAGAGGAGUCAAAGUUCGAUCUUAUUUCAAUAUGAUUGAAGGACAAGGACAUGGU`, the bound/input enrichment was 0.21 ratio.
The bound/input enrichment of `GGUGGUGCUACACGAAUCCCUGCGGUAAAAGAGAAGAUCAGCAAAUUUUUCGGUAAAGAACUCCGUACAACAUUAAAUGCUGAUGAAGCUGUCACUCGAGGCUGUGCAUUGCAGUGUGCC` is reported as 0.705 ratio.
The bound/input enrichment of `AUGGAAGAUACCCUGAAGAGGAGGUUUUUCUAUGAUCAAGCUUUUGCUAUUUAUGGAGGUGUCCGUGGUCUGUAUGACUUUGGGCCAGUUGGCUGUGCUUUGAAGAACAAUAUUAUUCAG` is reported as 0.145 ratio.
`UUUGGAGGGAGUAGAACAGGACCCCUCUCUGGAAAGAAGUUUGGAAAUCCUGGGGAGAAACCCGUUAAAAAGAAGUGGAAUCUUGAUGAGCUGCCCAAAUUUGAGAAGAAUUUUUAUCAA` gave a bound/input enrichment of 0.274 ratio.

Series 3 — method: RNA Bind-n-Seq; form: RNA; matrix: in vitro; tested at: 365 nM; relative to: no-protein control; reading: higher = stronger binding
Target: RNA binding protein fox-1 homolog 2, RRM domain, GST-SBP tag (RBFOX2, Homo sapiens, UniProt O43251-10, residues 100-194)
Setting: natural RNA segment, single round, ends assumed
All sequences stand within: GGGAGUUCUACAGUCCGACGAUC … UGGAAUUCUCGGGUGCCAA
Construct (chain): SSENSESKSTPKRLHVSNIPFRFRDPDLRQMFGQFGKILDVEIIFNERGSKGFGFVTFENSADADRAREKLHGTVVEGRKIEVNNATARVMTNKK
`GCCUAGGUCCCCCAAGCAUGGGGGACCCCUUCCCACAUAUAAGUUGAGAAGGUGCCUGCCAUAGCCAGGAGCGCAUCUCAAUGGAAACAUCACUGGGGUCACUUGGGAAG`: “RBNS enrichment (R)” 0.207.
Under “RBNS enrichment (R)”, `UGCCAUCACCAUAACCUCUGGGGACCCCAACCUCAGAGGCAGCUUCAAGUGCCUUUUGCUGCGCACCAAUGCCCAGCAGGGGAGGUGAGGGGGGCUGGCGGGGCGAAGUU` is recorded as 0.397.
`GUUCCUCAGCAGUGUAGAUGAAUUCACAUCAUUUAUGUUUUAACGGCGUUUUUUUGGAAAGCAUAAAUUGUGACAUCAGUUAUCAUGCUACUUCUUGGUGACAUAAUAUA` — result for “RBNS enrichment (R)”: 0.594.
Under “RBNS enrichment (R)”, `GAGGGCCUGCCGUGACGCUCAGUGGAGAGGGCAGGGCCUGUGUCUCCACUUAGGCCACACAGUGAUGAGGAAACCACAGAUGGAGCUUCUUGCCGAUAAUACUGACUCUA` is recorded as 1.14.
Under “RBNS enrichment (R)”, `AAAAACAAUCCUGGGUACGUAUGUUGGCUGGAAAACCACAAUGGACCCUGCCACUGCUUCUUGCCCUGAGGUUUGGAAGCUGAGAGUUAUAGAAGCCAAUUCACCAGGAG` is recorded as 0.296.
`GGGGAAAGAAGAGAGGAAGGUGAGCUAUAGCUUAACUCCUCCAGAGUGAGGAGAGGCUGAGCAUUCUACUACAGGACAGGACCUCGCCCCAAGCAAGCCAGUGAGCAGCC`: “RBNS enrichment (R)” 0.736.
Under “RBNS enrichment (R)”, `UUUACAACAAAAUGUUAAUUAUAUUCUAAAUACAGGGUAUGUUCUAAUCUAUAUUAAGCAAUAAUGCCAGUGCAUAAUCAUUCCAUUUGUUCCUUUAGCAAUCAACCCCA` is recorded as 0.471.
Under “RBNS enrichment (R)”, `AGUGGGAACGCCCUCGACUUUGCCCUCCUCCGGAGCAUCUCUGGGACGCAGGGAGUCUGGCUAGCGUUAAUAGGAAAGGUUGCUCGGCAGAGCUGCCCUGGAGUACUGAC` is recorded as 0.309.

Series 4 — method: universal PBM; form: double-stranded DNA, one strand shown; matrix: in vitro; tested at: not given; reading: higher = stronger binding
Target: Sal-like protein 4, full length isoform B (SALL4, Homo sapiens, UniProt Q9UJQ4-2, residues 1-616)
Setting: 8-mer, flanks averaged, mean of replicates
`AGAGATGG` gave an E-score of 0.0682.
`TACCAAGA` has an E-score of 0.137.
The E-score of `TATTCAAA` is reported as 0.32.
For `CGGATATA`, the E-score was 0.153.
With `CAAAGAGG` the E-score was -0.198.
With `ATTGGTAC` the E-score was -0.00852.
For `CTATTCGA`, the E-score was 0.0616.
The E-score of `ACCGTTGA` is reported as 0.0109.
`CAGTGCAG` has an E-score of -0.252.
For `CTGTCCCC`, the E-score was -0.36.
`ATTGAAAC` gave an E-score of 0.266.
For `GGCGGCAA`, the E-score was -0.257.
`GAAGTGGA` has an E-score of -0.0559.
`AACAGTGT` has an E-score of 0.106.
With `GGCCGAAC` the E-score was -0.347.
With `CCGCTCAC` the E-score was -0.371.
With `CCTTATGC` the E-score was 0.118.
`CTGGGCAA` gave an E-score of -0.092.
`AGCACAGA` gave an E-score of 0.0741.
For `CCACTTAA`, the E-score was 0.117.
With `CCACTGCC` the E-score was -0.273.
`GATGGCCA` gave an E-score of -0.0221.
For `AAATGTGA`, the E-score was 0.203.
`GTGCCGGA` has an E-score of -0.227.
The E-score of `CATGTCAG` is reported as -0.0869.

A few entries again (series 3):
`GGGGAAAGAAGAGAGGAAGGUGAGCUAUAGCUUAACUCCUCCAGAGUGAGGAGAGGCUGAGCAUUCUACUACAGGACAGGACCUCGCCCCAAGCAAGCCAGUGAGCAGCC`: “RBNS enrichment (R)” 0.736.
Under “RBNS enrichment (R)”, `AAAAACAAUCCUGGGUACGUAUGUUGGCUGGAAAACCACAAUGGACCCUGCCACUGCUUCUUGCCCUGAGGUUUGGAAGCUGAGAGUUAUAGAAGCCAAUUCACCAGGAG` is recorded as 0.296.
Under “RBNS enrichment (R)”, `AGUGGGAACGCCCUCGACUUUGCCCUCCUCCGGAGCAUCUCUGGGACGCAGGGAGUCUGGCUAGCGUUAAUAGGAAAGGUUGCUCGGCAGAGCUGCCCUGGAGUACUGAC` is recorded as 0.309.
Under “RBNS enrichment (R)”, `UUUACAACAAAAUGUUAAUUAUAUUCUAAAUACAGGGUAUGUUCUAAUCUAUAUUAAGCAAUAAUGCCAGUGCAUAAUCAUUCCAUUUGUUCCUUUAGCAAUCAACCCCA` is recorded as 0.471.
Under “RBNS enrichment (R)”, `GAGGGCCUGCCGUGACGCUCAGUGGAGAGGGCAGGGCCUGUGUCUCCACUUAGGCCACACAGUGAUGAGGAAACCACAGAUGGAGCUUCUUGCCGAUAAUACUGACUCUA` is recorded as 1.14.
Under “RBNS enrichment (R)”, `UGCCAUCACCAUAACCUCUGGGGACCCCAACCUCAGAGGCAGCUUCAAGUGCCUUUUGCUGCGCACCAAUGCCCAGCAGGGGAGGUGAGGGGGGCUGGCGGGGCGAAGUU` is recorded as 0.397.
`GCCUAGGUCCCCCAAGCAUGGGGGACCCCUUCCCACAUAUAAGUUGAGAAGGUGCCUGCCAUAGCCAGGAGCGCAUCUCAAUGGAAACAUCACUGGGGUCACUUGGGAAG`: “RBNS enrichment (R)” 0.207.
`GUUCCUCAGCAGUGUAGAUGAAUUCACAUCAUUUAUGUUUUAACGGCGUUUUUUUGGAAAGCAUAAAUUGUGACAUCAGUUAUCAUGCUACUUCUUGGUGACAUAAUAUA` — result for “RBNS enrichment (R)”: 0.594.
